Published values from different studies.
Every numbered part comes from another study and shows a few of its results, in no order. Changes are numbered by the printed parent chain.

Series 1
Target: RNA binding protein fox-1 homolog 2, RRM domain, GST-SBP tag (RBFOX2, Homo sapiens, UniProt O43251-10, residues 100-194)
Method: RNA Bind-n-Seq
Form: RNA
Sample: in vitro
Tested at: 365 nM
Notes: natural RNA segment, single round, ends assumed
Baseline: no-protein control
Direction: higher = stronger binding
Quantity: RBNS enrichment (R)
Shared flanks, not repeated: GGGAGUUCUACAGUCCGACGAUC … UGGAAUUCUCGGGUGCCAA
Residues (chain): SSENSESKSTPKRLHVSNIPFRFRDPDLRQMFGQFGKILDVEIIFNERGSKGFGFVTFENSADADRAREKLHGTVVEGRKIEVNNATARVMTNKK
Sequence = ACCAAGACUUUAUAGCAGAUGGACCCAGAAAGAAUUUUCUGCUAUUGUGUUCACUACAACAGGAUAGGGACAUCAGACAGCCCCAGAAACCCCUUCCAGAUCUGAUAUGG; result = 0.335
Sequence = CUCCAGAGAGAGGACCCUGCCCAUCCUCCUUUUGAAGCCAGGACUUAUUCUUGGUUCAUCAUACUCCAGACCAUGUAUCCUCUGGUGUCCUGGCUGGAAGAAGGGGCGUG; result = 0.335
Sequence = UGGAGAUUAGAACUGUUAGGAGCGCCACUCCCUGCCAUGUUGUCCUCGUACGCAGGCAGAUGACACCUUAUGCCAACAGGGACGCCUGUGAGGCCGAGACCUUGAUGGGA; result = 0.438
Sequence = UAGAUAAUAGUGAAAUAAAUUCAGCUUUGCCAUUGCUGGAGUUGUCAAAAUUCCACAGUAAUUAAAAUUUGAAUUUUUACCGAAUAUGAAAUUUCCAAAUUAAAAACGUA; result = 0.479
Sequence = CAUCUCUUGUUCCCACUACUGAAUUCUUAUAAAGUGGUGGCAAGAUAGGGAAGGGAUAAUCUGAGAAUUUUUAAAAGAUGAUUUAAUGAGAAGAAGCACAAUUUUGAUUU; result = 0.983
Sequence = AAUCUUGUUCGGGGACCACCAACGCUUGAAUAUGGCUGAGGAUGCCAUGUUUGCUCUAAAUUAAGACAGCAUUGAUCUCCUGGAGGCUGGUUCUGCUGCCUCUACACAGG; result = 0.279
Sequence = CGUGGUUGGGGCCCUGCCCUGGCAGGGUCAUCCUGUGCUCGGAGGCCAUCUCGGGCACAGGCCCACCCCGCCCCACCCCUCCAGAACACGGCUCACGCUUACCUCAACCA; result = 0.319
Sequence = GUUGGUGGCCCUCUGUGCCCUAAGCAUAUGCACAUGGGGCACAUACACAGCUACAGAGUGAGAGUUGGUUUGGAUCCUCUUCAUUUCAUUUGUUUGCCUUUCUGUUAUUU; result = 1.79
Sequence = AUCAUUCUUGGCAGGAAUCUGCAAAUGGAAACAUUGUGAGUAUCAGCAAUCUGGGAAGUGACAGGGUUAAUAACUCCUUCCCAGAAGCUGUAUCAUGAGAUUUUGAGGGG; result = 0.314
Sequence = CAUACAGAAGAGACAUCAGGGGUGUGGGUAAAAUUGUGUGUGUGCCUCCUUGACGUGGACAAUCACUAGACUCAGUGCUCUGAGAAAAUCUGCUAUUUCUGUUGAAUGGG; result = 0.433
Sequence = CUAGAUAACAUGCUUUGUGUGUAUCUGUGUAGUUCUGUGUUGCAGACGGAUGAUAUAUAAUGAUAAUAGAAUAGCACAUUCAGACUUACUUCCUGCAUGAUAGGGAGAGA; result = 24.7
Sequence = AUUUACAGUAUUAUUGUGAACCAUUUAACCCUUUUGAUCCAAGGCCCCGGACCAAGGGGAUACUGUAAUCAGGUUAUGUACACCAACCUCUGCAUCAGUUGCUUCUAUAG; result = 0.281

Series 2
Target: Ras GTPase-activating protein-binding protein 1, full length (G3BP1, Homo sapiens, UniProt Q13283)
UniProt Q13283, sequence (whole entry, looked up): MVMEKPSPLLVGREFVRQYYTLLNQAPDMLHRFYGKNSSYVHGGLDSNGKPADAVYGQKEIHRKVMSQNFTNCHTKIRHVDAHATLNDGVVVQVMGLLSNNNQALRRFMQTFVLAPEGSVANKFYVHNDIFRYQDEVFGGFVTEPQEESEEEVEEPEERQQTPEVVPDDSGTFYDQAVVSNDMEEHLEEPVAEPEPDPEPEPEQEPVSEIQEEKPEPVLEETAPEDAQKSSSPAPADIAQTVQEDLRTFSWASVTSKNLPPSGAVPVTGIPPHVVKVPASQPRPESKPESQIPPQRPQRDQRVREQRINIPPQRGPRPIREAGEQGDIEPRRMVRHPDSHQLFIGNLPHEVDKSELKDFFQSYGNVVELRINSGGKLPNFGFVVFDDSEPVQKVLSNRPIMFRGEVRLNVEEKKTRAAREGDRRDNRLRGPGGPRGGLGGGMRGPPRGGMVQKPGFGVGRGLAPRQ
Method: RNA Bind-n-Seq
Form: RNA
Sample: in vitro
Tested at: 200 nM
Notes: whole 134-nt RNA, ends assumed
Added: 150 mM LiCl
Baseline: input library
Direction: higher = stronger binding
Quantity: log2 enrichment
Library: 7-deaza-guanosine replaces G
Shared flanks, not repeated: GGGAGUUCUACAGUCCGACGAUC … UGGAAUUCUCGGGUGUCAAGG
Sequence = AAGUCCUGUGCUACACAUCGUAUGUACCGAAUCGGGGAGGGGUUUGGGGAAAGGGGAAAGUAUUAUGUUACGCCGUUCGGAUCUGCACUU; result = -0.0721
Sequence = GCAGGGAGUAAAAACAAAUGGAAAUGCUUCGGAUAGUGGCAGGGGUGGGGGUUGCUAAGGAAAGGGUGGGAUGGGAGUGGGUAAAGAGUU; result = -0.0288
Sequence = UGGAAGGAACGAGCCAGGAAGAGGGACUGGAACCAUCUCAGAAGCCAUGCCCCUCAGGCUGGAACUUGCCCUGUCUCCUCGCAGAUGAGG; result = -1.16
Sequence = CCUCAAGUCCUGUGCUACACAUCGUAUGUACCGAAUCGGGGCGGGCGGGGCGGAAAGUAUUAUGUUACGCCGUUCGGAUCUGCACUUCCA; result = 0.0358
Sequence = CACAGACAACACGCACCCACACAGACACAGAGGGAAGGGGUUGGGAUAAAGACAGGGUGCACAGCAGGGCGGGGUAGGACCCCAGCCCCU; result = 0.435
Sequence = GCAGGAAGUAAAAACAAAUGGAAAUCCUUCGGAUAGUGGCAGGGGUGGGGGUUGCUAAGGAAAGGGUGGGAUGGGAGUGGGUAAAGAGUU; result = 0.125
Sequence = CCUGUGCUACACAUCGUAUGUACCGAAUCGGGUUUUUUUGGGUUUUUGGGAAAAAAAGGGAAAGUAUUAUGUUACGCCGUUCGGAUCUGC; result = -0.545
Sequence = UUUCUGCAGCAUUAGAGAAGGCCCAAGAAGAAGCCCGUCAGCAGCAAGAAACAUUAGCCAUUCAAGUAAGCAAUGGAUGAUGAAUUAGAG; result = -2.99
Sequence = CUGUGCUACACAUCGUAUGUACCGAAUCGGGGAAAAAAAGGAAAAAAAGGGGAAAAAAAGGGAAAGUAUUAUGUUACGCCGUUCGGAUCU; result = 0.193
Sequence = UGGCCUGCACAUUCAGCUGCAUGAUGAAGUUCACUGUCAAGGACUGUGAUCCCACCACUGGGGAGACUGAUGACGAAGGCUAUGAGGAUG; result = -2.8
Sequence = CACAGACAACACGCACCCACACAGACACAGAGGGAAGGGGUUGGGAUGGGGACAGGGUGCACAGCAGGGCGGGGUAGGACCCCAGCUCCU; result = -1.27

Series 3
Target: ABI1, truncated, D143A, DHFR fusion (Arabidopsis thaliana)
Method: DHFR PCA, deep sequencing
Sample: yeast
Notes: methotrexate growth selection, single substitutions
Added: (+)-ABA 17 µM
Baseline: wild-type fitted maximum
Direction: higher = stronger binding
Quantity: relative binding score
Starting sequence: PYL1, truncated, DHFR fusion (Arabidopsis thaliana); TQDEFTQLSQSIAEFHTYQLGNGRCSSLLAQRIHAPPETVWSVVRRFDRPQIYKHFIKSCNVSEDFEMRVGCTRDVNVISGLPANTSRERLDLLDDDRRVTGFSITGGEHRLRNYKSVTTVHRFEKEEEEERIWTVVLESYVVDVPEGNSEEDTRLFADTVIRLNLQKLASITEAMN
Substitution = R99W; result = 106%
Substitution = Q19M; result = 70.4%
Substitution = A35I; result = 9.19%
Substitution = I105M; result = 29.8%
Substitution = L8P; result = 5.73%
Substitution = G148V; result = 11.1%
Substitution = R88I; result = 95.3%
Substitution = S27G; result = 86.9%
Substitution = G107I; result = 1.78%
Substitution = G148H; result = 55%
Substitution = L112M; result = 78.8%
Substitution = Q7F; result = 84.5%
Substitution = N165F; result = -9.91%
Substitution = I133Q; result = 94.5%
Substitution = S87D; result = 8.9%
Substitution = P146N; result = 13%

Series 4
Target: CCNF, cyclin fold, Cln2 fusion (human)
Method: yeast growth competition, sequencing
Sample: yeast
Notes: strong parent motif
Baseline: not given
Direction: higher = stronger binding
Quantity: normalised enrichment score
Starting sequence: CDKN1B docking peptide (human); PSACRNLFGPVDH
Substitution = PSAMRNLFGPVDH [C4M]; result = 4.33
Substitution = ASACRNLFGPVDH [P1A]; result = 7.18
Substitution = PSACRNLFVPVDH [G9V]; result = 2.23
Substitution = PSACPNLFGPVDH [R5P]; result = -0.845
Substitution = PSACRNLFGPVDT [H13T]; result = 6.32
Substitution = PSANRNLFGPVDH [C4N]; result = 4.32
Substitution = PSACRNLFGPVDD [H13D]; result = 6.57
Substitution = RSACRNLFGPVDH [P1R]; result = 7.63
Substitution = PSASRNLFGPVDH [C4S]; result = 4.68
Substitution = PSACTNLFGPVDH [R5T]; result = 0.226
Substitution = PSACRNLFHPVDH [G9H]; result = 4.85
Substitution = PSACRNLFGPVFH [D12F]; result = 7.35
Substitution = PSGCRNLFGPVDH [A3G]; result = 3.2
Substitution = PSACRNPFGPVDH [L7P]; result = -0.233
Substitution = PSACRNLFGPVSH [D12S]; result = 7.2
Substitution = PSACRFLFGPVDH [N6F]; result = 3.04
Substitution = PSACFNLFGPVDH [R5F]; result = 0.0278
Substitution = PSACRNLFGCVDH [P10C]; result = 6.53

Series 5
Target: Protein max, full length (MAX, Homo sapiens, UniProt P61244-2, residues 1-151)
Method: protein-binding microarray
Form: double-stranded DNA, one strand shown
Sample: in vitro
Tested at: not given
Notes: k-mer, scored over probes, only values ≥0.25
Direction: higher = stronger binding
Quantity: E-score
Sequence = ACGTGATG; result = 0.433
Sequence = CGCGTGCA; result = 0.45
Sequence = CATGATGC; result = 0.274
Sequence = GGGCATGA; result = 0.277
Sequence = AATCACAC; result = 0.293
Sequence = CGTGGATC; result = 0.309
Sequence = GCGTGAGA; result = 0.331
Sequence = CGTGGGCC; result = 0.368
Sequence = CGTGAAAG; result = 0.253
Sequence = ACGCCCGA; result = 0.279
Sequence = AGCACGTC; result = 0.287
Sequence = CGTGATCC; result = 0.344
Sequence = CATGAGCG; result = 0.251
Sequence = CGTGGGGA; result = 0.289
Sequence = ACGCTCGC; result = 0.256
Sequence = AGCGCGCG; result = 0.28
Sequence = ACATGCCG; result = 0.403
Sequence = ACCTGTTC; result = 0.258
Sequence = ATTCACGC; result = 0.326
Sequence = CAGTCACG; result = 0.42
Sequence = CCACCACG; result = 0.361

Mixed results
Molecule = PhoQ, residues 284 288 289 292 302 303 NSMLDC; target = PhoP, residues 12 14 15 18 19 GHCSL (Escherichia coli, UniProt P23836); assay = Sort-seq, measured: YFP reporter; system = E. coli; setting = PhoQ-PhoP variant library, added: 10 µM Mg2+; scale = baseline: high Mg2+ state, higher = stronger signaling; quantity = fold induction; result = 16.6

For quick reference, copied from above (series 4):
Substitution = PSAMRNLFGPVDH [C4M]; result = 4.33
Substitution = ASACRNLFGPVDH [P1A]; result = 7.18
Substitution = PSACRNLFVPVDH [G9V]; result = 2.23
Substitution = PSACPNLFGPVDH [R5P]; result = -0.845
Substitution = PSACRNLFGPVDT [H13T]; result = 6.32
Substitution = PSANRNLFGPVDH [C4N]; result = 4.32
